{"data": "Results of several laboratories", "note": "Every numbered part comes from another study and shows a few of its results, in no order. Positions count from the first letter of the parent shown."}
{"data": "Series 1", "target": "Prothrombin, mature alpha-thrombin (F2, Homo sapiens, UniProt P00734)", "technique": "aptamer microarray, sandwich", "molecule type": "DNA with 2'F-ANA", "medium": "in vitro", "concentration": "200 nM", "notes": "whole 15-mer aptamer, many near background", "with": "Cy3 exosite-II aptamer, 400 nM", "direction": "higher = stronger binding", "sequence": "GGTTGGTGTGGTTGG"}
{"Modification": "2'F-ANA at 1 7 11 12 13", "mean fluorescence intensity": "284 a.u."}
{"Modification": "2'F-ANA at 3 4 12", "mean fluorescence intensity": "1020 a.u."}
{"Modification": "2'F-ANA at 2 7 13", "mean fluorescence intensity": "395 a.u."}
{"Modification": "2'F-ANA at 1 2 4 5 6 7 8 9 14 15", "mean fluorescence intensity": "60.4 a.u."}
{"Modification": "2'F-ANA at 2 3 5 7 8 14 15", "mean fluorescence intensity": "75.4 a.u."}
{"Modification": "2'F-ANA at 1 2 3 4 8 11 12 13", "mean fluorescence intensity": "263 a.u."}
{"Modification": "2'F-ANA at 3 4 5 8 12 13 15", "mean fluorescence intensity": "137 a.u."}
{"Modification": "2'F-ANA at 1 2 3 4 5 6 9 11 14", "mean fluorescence intensity": "51.5 a.u."}
{"Modification": "2'F-ANA at 1 2 3 4 5 8 13 14 15", "mean fluorescence intensity": "53.6 a.u."}
{"Modification": "2'F-ANA at 1 3 5 6 8 9 13 14 15", "mean fluorescence intensity": "48.7 a.u."}
{"Modification": "2'F-ANA at 1 2 3 4 6 10 13 14 15", "mean fluorescence intensity": "49.2 a.u."}
{"Modification": "2'F-ANA at 1 3 4 5 7 8 13 15", "mean fluorescence intensity": "55.3 a.u."}
{"Modification": "2'F-ANA at 1 5 8 11 12 15", "mean fluorescence intensity": "97 a.u."}
{"Modification": "2'F-ANA at 1 2 6 8 10 11 13 15", "mean fluorescence intensity": "71.3 a.u."}
{"Modification": "2'F-ANA at 4 5 6 7 12 13 14 15", "mean fluorescence intensity": "47.5 a.u."}
{"Modification": "2'F-ANA at 4 7 8 9 10 12", "mean fluorescence intensity": "132 a.u."}
{"Modification": "2'F-ANA at 1 2 3 6 7 9 13 15", "mean fluorescence intensity": "131 a.u."}
{"Modification": "2'F-ANA at 1 3 7 8 9 10 11 12 13 14 15", "mean fluorescence intensity": "64.8 a.u."}
{"Modification": "2'F-ANA at 1 3 5 7 8 10 14", "mean fluorescence intensity": "49.6 a.u."}
{"Modification": "2'F-ANA at 4 6 7 8 9 10 11 13 14 15", "mean fluorescence intensity": "58.8 a.u."}
{"Modification": "2'F-ANA at 1 3 4 5 7 9 12 13 15", "mean fluorescence intensity": "70.3 a.u."}
{"Modification": "2'F-ANA at 5 6 9 10 12 14 15", "mean fluorescence intensity": "48.4 a.u."}
{"Modification": "2'F-ANA at 1 4 5 6 7 8 14", "mean fluorescence intensity": "50.7 a.u."}
{"Modification": "2'F-ANA at 1 4 7 12 14 15", "mean fluorescence intensity": "63.7 a.u."}
{"Modification": "2'F-ANA at 5 6 15", "mean fluorescence intensity": "68.9 a.u."}
{"data": "Series 2", "target": "ABI1, truncated, D143A, DHFR fusion (Arabidopsis thaliana)", "technique": "DHFR PCA, deep sequencing", "medium": "yeast", "notes": "methotrexate growth selection, single substitutions", "with": "(+)-ABA 0.39 µM", "reference": "wild-type fitted maximum", "direction": "higher = stronger binding", "starting sequence": "PYL1, truncated, DHFR fusion (Arabidopsis thaliana); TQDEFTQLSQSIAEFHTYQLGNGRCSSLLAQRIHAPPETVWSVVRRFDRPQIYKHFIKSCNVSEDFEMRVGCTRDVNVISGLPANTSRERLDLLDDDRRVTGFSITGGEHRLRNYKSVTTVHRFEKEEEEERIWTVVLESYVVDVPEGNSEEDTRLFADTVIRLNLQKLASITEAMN"}
{"Substitution": "D92E", "relative binding score": "10.9%"}
{"Substitution": "F157K", "relative binding score": "-3.36%"}
{"Substitution": "S117R", "relative binding score": "4.45%"}
{"Substitution": "N165D", "relative binding score": "18.4%"}
{"Substitution": "F5A", "relative binding score": "19.8%"}
{"Substitution": "I12K", "relative binding score": "-11%"}
{"Substitution": "E14C", "relative binding score": "-2.63%"}
{"Substitution": "Q10K", "relative binding score": "54.5%"}
{"Substitution": "M68W", "relative binding score": "0.41%"}
{"Substitution": "A170P", "relative binding score": "1.69%"}
{"Substitution": "L94Y", "relative binding score": "6.18%"}
{"Substitution": "R88T", "relative binding score": "56%"}
{"Substitution": "F5G", "relative binding score": "5.92%"}
{"Substitution": "R163V", "relative binding score": "5.77%"}
{"Substitution": "T101V", "relative binding score": "45.3%"}
{"Substitution": "N77P", "relative binding score": "-16.2%"}
{"Substitution": "F5K", "relative binding score": "11%"}
{"Substitution": "S59M", "relative binding score": "3.92%"}
{"Substitution": "N22G", "relative binding score": "39.5%"}
{"Substitution": "R88L", "relative binding score": "24.6%"}
{"Substitution": "L112C", "relative binding score": "1.62%"}
{"Substitution": "I57S", "relative binding score": "-2.16%"}
{"Substitution": "N77S", "relative binding score": "63.7%"}
{"Substitution": "E151P", "relative binding score": "49.9%"}
{"Substitution": "V145K", "relative binding score": "-36.2%"}
{"data": "Series 3", "target": "CCNA1, cyclin fold, Cln2 fusion (human)", "technique": "yeast growth competition, sequencing", "medium": "yeast", "notes": "weak parent motif", "reference": "not given", "direction": "higher = stronger binding", "starting sequence": "RBL1 docking peptide (human); GSAKRRLFGEDPP; partner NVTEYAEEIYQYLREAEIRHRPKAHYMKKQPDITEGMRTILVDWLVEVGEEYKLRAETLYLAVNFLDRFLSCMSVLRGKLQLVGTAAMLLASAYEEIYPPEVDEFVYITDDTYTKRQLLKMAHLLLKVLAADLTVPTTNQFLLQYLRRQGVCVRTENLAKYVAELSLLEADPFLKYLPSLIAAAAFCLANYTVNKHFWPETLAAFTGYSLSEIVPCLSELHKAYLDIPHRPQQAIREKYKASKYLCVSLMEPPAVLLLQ"}
{"Substitution": "A3H", "normalised enrichment score": 0.334}
{"Substitution": "P12H", "normalised enrichment score": 0.356}
{"Substitution": "R6M", "normalised enrichment score": 0.453}
{"Substitution": "P12E", "normalised enrichment score": 0.738}
{"Substitution": "G9R", "normalised enrichment score": 0.685}
{"Substitution": "S2E", "normalised enrichment score": 0.496}
{"Substitution": "S2L", "normalised enrichment score": 0.471}
{"Substitution": "A3R", "normalised enrichment score": 0.38}
{"Substitution": "P13T", "normalised enrichment score": 0.532}
{"Substitution": "L7K", "normalised enrichment score": 0.247}
{"Substitution": "S2I", "normalised enrichment score": 0.463}
{"Substitution": "S2P", "normalised enrichment score": 0.413}
{"Substitution": "P13Y", "normalised enrichment score": 0.315}
{"Substitution": "R5H", "normalised enrichment score": 0.162}
{"Substitution": "R5S", "normalised enrichment score": 0.426}
{"Substitution": "L7W", "normalised enrichment score": 0.457}
{"data": "Series 4", "target": "ATF5, bZIP domain (human)", "technique": "DHFR protein complementation", "medium": "yeast", "notes": "single substitutions, most at no-binding floor", "reference": "wild-type JUN-FOS pair", "direction": "higher = stronger binding", "starting sequence": "JUN, bZIP domain (human); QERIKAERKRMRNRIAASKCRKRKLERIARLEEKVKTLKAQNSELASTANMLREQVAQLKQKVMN; partner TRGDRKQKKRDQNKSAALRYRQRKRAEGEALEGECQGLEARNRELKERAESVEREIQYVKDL"}
{"Substitution": "E32Q", "binding fitness": "-1.56 natural log"}
{"Substitution": "T48P", "binding fitness": "-1.52 natural log"}
{"Substitution": "K36P", "binding fitness": "-1.48 natural log"}
{"Substitution": "A46T", "binding fitness": "-1.46 natural log"}
{"Substitution": "T48W", "binding fitness": "-1.43 natural log"}
{"Substitution": "M51D", "binding fitness": "-1.22 natural log"}
{"Substitution": "S47K", "binding fitness": "-1.57 natural log"}
{"Substitution": "L38H", "binding fitness": "-1.51 natural log"}
{"Substitution": "V35F", "binding fitness": "-1.57 natural log"}
{"Substitution": "E44R", "binding fitness": "-1.35 natural log"}
{"Substitution": "S47R", "binding fitness": "-1.33 natural log"}
{"Substitution": "A29L", "binding fitness": "-1.53 natural log"}
{"Substitution": "N42I", "binding fitness": "-1.41 natural log"}
{"Substitution": "T37F", "binding fitness": "-1.31 natural log"}
{"Substitution": "K36S", "binding fitness": "-1.61 natural log"}
{"Substitution": "L31W", "binding fitness": "-1.48 natural log"}
{"Substitution": "A49T", "binding fitness": "-1.3 natural log"}
{"Substitution": "L59P", "binding fitness": "-1.47 natural log"}
{"Substitution": "A49M", "binding fitness": "-1.36 natural log"}
{"Substitution": "A29M", "binding fitness": "-1.51 natural log"}
{"Substitution": "A29E", "binding fitness": "-1.3 natural log"}
{"Substitution": "L45E", "binding fitness": "-1.57 natural log"}
{"Substitution": "V56H", "binding fitness": "-1.41 natural log"}
{"Substitution": "L45H", "binding fitness": "-1.46 natural log"}
{"Substitution": "Q55W", "binding fitness": "-1.48 natural log"}
